Assay results gathered from unrelated publications.
Every numbered part comes from another study and shows a few of its results, in no order. Changes are numbered by the printed parent chain.

Series 1
Target: CCNB2, cyclin fold, Cln2 fusion (human)
Method: yeast growth competition, sequencing
Matrix: yeast
Setting: weak parent motif
Baseline: not given
Direction: higher = stronger binding
Starting sequence: MASTL docking peptide (human); PMIAKNLMCELDE; partner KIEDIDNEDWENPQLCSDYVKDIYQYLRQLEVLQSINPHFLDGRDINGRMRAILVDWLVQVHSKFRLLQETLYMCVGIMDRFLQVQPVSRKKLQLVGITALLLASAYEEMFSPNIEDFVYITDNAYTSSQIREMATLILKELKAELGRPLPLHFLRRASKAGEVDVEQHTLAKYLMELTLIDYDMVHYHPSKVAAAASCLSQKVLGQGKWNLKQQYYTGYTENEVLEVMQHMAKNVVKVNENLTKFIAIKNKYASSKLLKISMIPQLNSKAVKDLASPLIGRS
Substitution	normalised enrichment score
E10F	0.145
D12S	0.639
L11C	-0.169
I3Q	0.0919
D12K	0.294
I3R	0.077
C9L	0.95
C9F	1.61
I3V	0.301
L11I	1.01
M8A	0.0524
I3L	0.439
I3E	-0.0698
K5A	-0.0982

Series 2
Target: ABI1, truncated, D143A, DHFR fusion (Arabidopsis thaliana)
Method: DHFR PCA, deep sequencing
Matrix: yeast
Setting: methotrexate growth selection, single substitutions
Together with: (+)-ABA 0.0091 µM
Baseline: wild-type fitted maximum
Direction: higher = stronger binding
Starting sequence: PYL1, truncated, DHFR fusion (Arabidopsis thaliana); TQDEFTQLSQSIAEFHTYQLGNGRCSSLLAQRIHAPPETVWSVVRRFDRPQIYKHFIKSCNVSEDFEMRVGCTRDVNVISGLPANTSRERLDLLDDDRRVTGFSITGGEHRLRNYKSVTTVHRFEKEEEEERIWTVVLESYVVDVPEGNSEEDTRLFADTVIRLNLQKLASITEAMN
Substitution	relative binding score [%]
G23E	0.608
Q2E	35.2
P36Y	-0.882
S26H	9.03
T6W	25.8
T73R	0.5
E4G	-0.538

Series 3
Target: RNA binding protein fox-1 homolog 2, RRM domain, GST-SBP tag (RBFOX2, Homo sapiens, UniProt O43251-10, residues 100-194)
Method: RNA Bind-n-Seq
Molecule type: RNA
Matrix: in vitro
Tested at: 365 nM
Setting: natural RNA segment, single round, ends assumed
Baseline: no-protein control
Direction: higher = stronger binding
Constant ends, left off below: GGGAGUUCUACAGUCCGACGAUC … UGGAAUUCUCGGGUGCCAA
Sequence	RBNS enrichment (R)
UUGAUGGGCAAGCCUUGCUGCUGCUCAAGGAGGACCACCUAAUGAGCGCCAUGAACAUCAAGCUAGGGCCCGCCCUGAAGAUCUACGCACGCAUCAGCAUGCUCAAGGAC	1.13
UUAAACUGUCAGCUGGUCUAGCCUGAGCGAGGCCUGAGACCAUCAGUCACUAAGAGCAGUGGCUAACCUCAUCGAAGUUGGAAGGAAUGUUUUUAAAAUUACCUCUUCGA	1.61
GUGGCCAAGCGUCCUUACAGCCAGUGCACAGGACUUUCAGAGACCAAGGCCAGGGUCUGCUGCACUGCUGUUCUGAUAAUAGGUUCUUAACAUUGUAUGUAUAUGUGUUU	1.21
AAUCUAUUCCUGCCACCACUGGGCAAACAGAAGAAUUUUUCUGUCUUUGGAGAGUAUUUUAGAAACUCCAAUGAAAGACACUGUUUCUCCUGUUGGCUCACAGGGCUGAA	0.409
GUUUUUUUUUCAUUUUAAACCAAAUGCAUGUAUAAUCAUGUUGGAAUAUGUUAAGAUCUAUGGAUAUUCUGUAGCAAGAGAAAAUAUCUUUGCCUUAACUCCACUGCUGU	2.53
CCUUUGGUGCCAACUGGUGUUUGAAAGUAGGGACCUCAGAGGUUUACCUAGAGAACAGGUGGUUUUUAAGGGUUAUCUUAGAUGUUUCACACCGGAAGGUUUUUAAACAC	0.456
UCCAGUGUUUGGGAUGACCAGGAUCCCAAGCCUCCUGCUGCCACAAUGUUUAUAAAGGCCAAAUGAUAGCGGGGGCUAAGUUGGUGCUUUUGAGAACCAAGUAAAACAAA	0.419
CCUGCUCCCCACUCCCUUUCCCCACUCCUUCUUUAUUGCACACAGGACACCAGUCUUCAAGGAAAGGGACUUUUUUCCAGUCUGCCAAUCAUAUUGGGAAAGUGCUAGCU	0.906
ACAAAGAAAGCUAAGCUGUUGUACAUAUUUGUAGUUGGCUGUGCAUGGUACAAAUUUAUUAAUAUGAAGAAAUGCAAAAUGUAUUGCUUUUGAUAUUUCUCUUCCGAGAU	8.5
GGUCCAGCACAAGAUGUGAAGAUUAAAUGCCUAUUCUUACUGAAGGUUUGAUGUGGAAUCAUGGCUGCAGUGAUAUGUUUUUAUCAGCGCUUGGUGGUUUUAAAGUGCAU	0.463
AAAUGUCCAGGCUGGUGAAGAUCCGCUGAGCAAGAGCCCUGGUGUGGGGAAAGGGAGGUCAGAGUACCAGGAACUGCUGAUGUCUGCUCUAAAGUACUUGAGUGGUGCUA	0.766
UUGUUGACUCAGGGCAUAAUGAGUUCCUGAGACAUGCUCUUUUGGGGGCUGGGGCUUUAGCUAGAAGAAUUUCAAGGAAAAGAAUUCUCAGCAGAGCUCAAGAUUGUAGA	0.45

Mixed results
Substance	target	assay	test system	conditions	how to read	endpoint	result
PhoQ, residues 284 288 289 292 302 303 AGHLVA	PhoP, residues 12 14 15 18 19 AGCRL (Escherichia coli, UniProt P23836)	Sort-seq, measured: YFP reporter	E. coli	PhoQ-PhoP variant library, together with: 10 µM Mg2+	baseline: high Mg2+ state, higher = stronger signaling	fold induction	4.6

Excerpt of the above (series 1):
Substitution	normalised enrichment score
I3Q	0.0919
I3R	0.077
